Published values pooled from the literature.
A part holds a random share of what one study measured. Substitutions count along the parent as printed.

Series 1 — method: RNA Bind-n-Seq; form: RNA; matrix: in vitro; concentration: 365 nM; reference: no-protein control; direction: higher = stronger binding
Target: RNA binding protein fox-1 homolog 2, RRM domain, GST-SBP tag (RBFOX2, Homo sapiens, UniProt O43251-10, residues 100-194)
Setting: natural RNA segment, single round, ends assumed
Constant ends, left off below: GGGAGUUCUACAGUCCGACGAUC … UGGAAUUCUCGGGUGCCAA
Target sequence (chain): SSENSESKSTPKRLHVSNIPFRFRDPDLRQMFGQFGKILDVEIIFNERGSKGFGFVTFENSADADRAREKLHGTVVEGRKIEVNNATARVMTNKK
Sequence	RBNS enrichment (R)
CUGUUCGUCUGCACAGCUGUGAGGCGAUGCUGUUCCAUCUGCACAUGAAGGACCCCCAUACAGCCUGUCUCCCACCCCUGACAACCCGAGAGGGCAUAUGGGGCCCUGCC	1.14
AACCUCAUUUAUUUAUCUUAAAAUUAACCAGCUUUCUCAGUUCCAUCCAAAGAAGAUACAGUAUGAAAGUAGAGGUGCACUCUCUAUAAUACAAUCUACUGUACAGUUAG	0.889
GGGAAGGCCAGGCUGGACCCCGGCUCCACACCCACAUCCAGCCUGCAGGCCUCUCUGCAGUCCUCUCACCCUCCCUCAGCUCCCCUUCCUCUGCAGUCACCCUCAGCUCC	0.513
CACAUUUUACCACGCGGCCAUACUUGCAGAAUGCAGACCCUAGUGGGCUGUACUGUAUGCACUUUGAUGAAGACGUGAAAAGAAUCUGUUGUACUUUUUAUUCAAUCUGU	0.274
CAAUAAGGGGAGAGUAACCCUGUCUAAUGAAACCUGUGUCUCUGAGAGUAGAGUCACUGGAACACUAAUGAGGAAACUGCACUGUUUUAUUUUAAUUCAGUUGUUAGUGU	0.388
UGGGGCUCAGGCCAGUGGGUGUGGGAUGGGCCAUCUGCAGGAUAGACCUGGCAAGUCCCCUCUGAUACCCCCAAGCCAGCCAGCCGGGUCCCCCAGGGGUCAGGACAGAA	0.44
CAACCCCUCACUGGUCUUGCAUGAGCUAGAGGGUUGGGAAGCUGGGCUCAUUCCACGCAUUGCCUGCAGCCAUCUGCACACUGCACCUGCUGGCAGCUCCUCCCCAGCAA	17.6
AAGCAGUGUGUUCAGUAUGCAAAUCAAUUAUUUUAAGAAUCGCUUUUGUAAAUAUCUUUGUGAAUAUUUUAGUAUUGUCUUUGAUAAUAUUCAACAUUUUCAUGACCUGG	1.17
GAUAGGAUGUUUUGUUUCCUUGAUAAAACAAAUGUAAAUGAGGAAUUUUAUUUGAAUUGGAAUAUUGUUUUUCUAGAGGACAUUCAUAUCUGCACUAUUAUCUGAUGACA	1.19
CUUCAAAUUCUCUUUCAGUAGUACAAUAGCAGGGGGAAAGGGGACAGGUAACAGGAGUACCUUUGUUUUAACAGACAAAAGUAAUCUCCAGGCCUUAGGGACUCAUAAAG	0.265
GUGUCAUACUGGGGCCAGCGAGAUGGCUCAGUAGGUAAAGGUGCUUGAUGCUAAGCCCGGCAGCCUGUGUUUCAUCUACAGGAUGCACAACAUAAAAGAAAAGAUCUGAU	0.4
CUGAGUUGAAUUUCUGGGAGGAUGACGCAGAUGUCUGCUGCAGAGCUGGGCUGAGAGUUCUGCAGUCUAGCUCUGACUUAGGUCAGGGGCCUGUUGGUCUCUCAUUGGAC	0.32

Series 2 — method: RNA Bind-n-Seq; form: RNA; matrix: in vitro; concentration: not given; reference: input RNA pool; direction: higher = stronger binding
Target: RING finger protein unkempt homolog, zinc fingers 1-6, GST-SBP tag (UNK, Homo sapiens, UniProt Q9C0B0, residues 30-357)
Setting: RNA with constant flanks, human and mouse sites, ends assumed
Constant ends, left off below: GGGAGUUCUACAGUCCGACGAUC … CAACAGAGGAUUGAGCAUCA
Residues (chain): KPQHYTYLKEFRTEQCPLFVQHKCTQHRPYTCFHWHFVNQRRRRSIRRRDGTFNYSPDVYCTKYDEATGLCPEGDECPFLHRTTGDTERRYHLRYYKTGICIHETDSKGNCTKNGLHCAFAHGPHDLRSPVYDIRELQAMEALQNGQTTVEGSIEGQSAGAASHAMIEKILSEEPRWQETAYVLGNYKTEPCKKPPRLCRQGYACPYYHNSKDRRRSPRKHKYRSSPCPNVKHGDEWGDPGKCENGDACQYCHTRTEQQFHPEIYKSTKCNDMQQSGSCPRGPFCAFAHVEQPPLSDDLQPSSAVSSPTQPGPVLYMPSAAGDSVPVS
Sequence	bound/input enrichment
GGGACAGGGGUAGUGUUCCUGGUUUUGGUGGGGUUUGCCUUUAGUUUAAUUUUCCUUUUCUAGCUUCCCUUUGCCGGCUGGUGCGUACGUUGUAGUCCCCCGAGGCCAUGUCAGGAGACG	7.25 ratio
ACAGAUGAAGCUGACCUGGUUCUUGCAAAAGAAGCUAAUGUGAAAUGUCCACAAAUUGUGAUAGCAUUUUAUGAAGAGAGACUGACAUGGCAUGCAUAUCCUGAGGAUGCGGAAAACAAA	0.228 ratio
CAUGCUCUUGCACUUUACAGAACUGAUGAUUACUUAGAUCAACCGUGUUAUGAAACCAUUAAUAGAAUUAAACUUUACAGUGAAUCUUUGGCAAGAUAUGGCAAAAGCCCAUACCUUUAU	7.38 ratio
AGACCAUGAAUUAUGGAAUUUCCUAAAUGAAGCAUUCAGGAAUGGAAUGAGAGAAUGUCACAUAGAAAAUAAAUGAUUUUUAAGUUAUGUCUAUUAAUUUGACUCUAGAUAUAUAUAUUU	19.9 ratio
UUUCAGCAACUGGUCAAUUUUUCAGAAGGAGGACCGGGCUCUAAUUCCACUGGCAGUGAAGUAGCAUCAAUGUCCUCUCAACUUCCAGAUACACCUAACAGCAUGGUAGCCAGUCCUAUU	0.172 ratio
AGCCGCCGCAGCCGCACCCCCAGCCGCCGCAGCCGCACCCCCAGCCGCCGCAGCCGCACCCCCAGCCGCCGCAGCCGCACCCCCAGCCGCCGGAGCCGCACCCCUAGCCGUCGGAGCCGC	1.32 ratio
GAUUGUCUUCAGUCCUGGGAACCUUGGCCUCGACAGCCCUAUUUAUGCAUACAAGUAAUAUAUAGAUGAAUGUCUCAAGUAAAUAUGGCUUAUGGAUGGUAGUGGAUAAUUUGAUGAGAA	0.561 ratio
CCUCAUGAACUUCAGAAACUACAGUGUCCCAAGAUAAAGACUGUGGACAUCAGCCUGAUUCUUUCUGAGGCGAUUCGGAGAAUCCACAAUGGAGAGUCUAUGGCUUACCUCUUCCGGAAC	0.102 ratio
CCAGUUUGGGUGGAUGAAGAUGAUGAAGAUGAGGAAAUAGUUGACAUGUCGAACAAUCGGUUUCGGAAAGAUAUAAUGAAAAAUGCCAGUGAAAGUAAACUUUCAAAAGAUAAACUUCAA	0.372 ratio
UAAGCCCGGAGCCCGGCGCUUUCCCCGCAAGAUGGACGGUUUCGCCGGCAGUCUCGAUGAUAGUAUUUCUGCUGCAAGUACUUCUGAUGUUCAAGAUCGCCUGUCAGCUCUUGAGUCACG	0.0984 ratio
GUGACAGAAAUUCCUAAAGAAGAGAAGGACCCUGGAAUGGGUGCAAUGGGUGGCAUGGGAGGGGGUAUGGGAGGCGGCAUGUUCUAACUCCUAGAGUAGUGCUUUGCCCUUAUCAAUGAA	0.321 ratio

Series 3 — target: CCND3, cyclin fold, Cln2 fusion (human); method: yeast growth competition, sequencing; matrix: yeast; setting: weak parent motif; reference: not given; direction: higher = stronger binding
Starting sequence: CDKN1B docking peptide (human); PSACRNLFGPVDH
Change	normalised enrichment score
D12L	0.124
P10H	0.0647
R5C	0.0522
N6S	0.155
N6P	0.0602
C4Y	0.118
D12T	0.152
R5Q	0.0876
P10D	0.207
D12H	0.134
C4D	0.111
L7Q	0.0899
H13S	0.0251
F8L	0.159
C4A	0.177
H13D	0.103
R5G	0.0872
D12S	0.0559
P1W	0.123
G9Y	0.144
H13V	0.132
F8K	0.121
R5I	0.138
V11R	0.0495
L7I	0.199

Series 4 — method: protein-binding microarray; form: double-stranded DNA, one strand shown; matrix: in vitro; concentration: 940 nM top; setting: 60-bp whole probe; with: salmon DNA 0.4 mg/ml; reference: random background probes; direction: higher = stronger binding; constant ends, left off below: GCCTAGCAC … GTCTTGATTCGCTTGACGCTGCTG
Target: Interferon regulatory factor 5, full length, phosphomimetic (IRF5, Homo sapiens, UniProt Q13568-2, residues 1-514, S451D/S453D/S456D/S462D)
Sequence	fitted relative affinity [z-score]
GGCGATATCGGGTATCGAGACGTGCTA	0.811
TCAAACTTGTATTTGTCACTGTGCTAG	-0.217
TCAGCTCACGCTTTGGAACTGTGCTAG	-0.447
GACGATATCTGGACTGGAGACGTGCTA	-0.464
TCACATTTATATCTTTGACTGTGCTAG	0.811
GACGGTCTCGGTATCGGCACGTGCTAG	4.43
AGACAAGCATTTGGTGATGCGTGCTAG	-0.459
TTAGATTTCAGTTCCGACTAGTGCTAG	1.23
ATCATTTTCTCTGTTCTAGAGTGCTAG	2.32
TTAGGTATCGGTATCGGTGAGTGCTAG	10.8
TTAGGACTGCTTTTTCTTTAGTGCTAG	0.189
GTAGGTATCGGTCTCGGTTAGTGCTAG	9.51
TTAGAGATCAGTTTCGATTAGTGCTAG	8.15
TTAGGACTGCTACTGCTTTTGTGCTAG	-0.356
GACGTTATCAGTATCGAGACGTGCTAG	1.66
TCAAGTTTAATATCTAAGACTGTGCTA	-0.167
TCACCTCTAGGTCTTCTACTGTGCTAG	0.288
GACGGTATCGACTCTCGGGACGTGCTA	4.7
TTAGGTCACCTTATCCTTTAGTGCTAG	0.156
GACGGTTTCGGTATCGTGACGTGCTAG	12.2
GACGATTTCGACTTTCGGGACGTGCTA	1.22
GACGATCTCAGTTTCGAAACGTGCTAG	4.94
CTCTATTGCTTTCTCTTTCAGTGCTAG	2
GGCGGTCTCCTTATCCTGACGTGCTAG	0.522
GACGGTTTCCTTATCGTGACGTGCTAG	1.55

Repeated from above (series 3):
Change	normalised enrichment score
D12H	0.134
C4D	0.111
L7Q	0.0899
H13S	0.0251
F8L	0.159
C4A	0.177
H13D	0.103
R5G	0.0872
D12S	0.0559
P1W	0.123
G9Y	0.144
